Measured values gathered from unrelated publications.
Protocols differ between the studies behind these lines. Values joined by “and” are separate records of one study, mostly repeats; a detail may differ.
Target: Serine/threonine-protein kinase D2 (PRKD2, Homo sapiens, UniProt Q9BZL6)

Cc1cnc2nc1Nc1cccc(c1)COC/C=C/COCc1cc(ccc1OCCN1CCOCC1)N2 — remaining binding (binding; 0.1 µM): 93%
CNC1C[S+]2CC[S+]3CC[S+](C1)[Ru-4]321([N]=C=S)[n]2c3ccc(OC)cc3c3c4c(c5cc(F)c[n+]1c5c32)C(=O)NC4=O (stereo not drawn) — remaining binding (KinomeScan; 0.1 µM; reference: untreated): 100%
CNC(=O)C1CCN(c2cc(C)c(F)cc2NC(=O)c2ccc(-c3cc(O)ccc3C)c(C)c2)CC1 — remaining binding (binding, competition with immobilised ligand; 1 µM): 100%
Cc1ccc(-c2c(/C=C(\C#N)C(=O)NC(C)C)n(CCCO)c3ncnc(N)c23)cc1 — remaining binding (cell-free assay, competition with immobilised ligand; 1 µM): 99%
NC(=O)C[C@H]1CCc2sc3ncnc(O[C@H]4CC[C@H](N5CCOCC5)CC4)c3c21 — inhibition (enzyme activity, inhibitor; 10 µM): 0%
COc1cc(-n2cc3cc(F)cc(C(N)=O)c3n2)cc(Cl)c1C1CC(O)(CCO)Cc2ccccc21 (stereo not drawn) — inhibition (enzyme activity, inhibitor; 10 µM): 0.78%
COc1ccc(NC(=O)Nc2ccc3c(c2)C(=O)N(C(C)CO)CC(C)C(CN(C)Cc2ccc4c(c2)OCO4)O3)cc1 (stereo not drawn) — remaining activity (kinase activity, KinaseProfiler; 0.03 µM, species human; reference: control): 101%
CCn1cc(C(=O)O)c(=O)c2c(N)c(F)c(NC3CCCCC3)cc21 — inhibition (kinase activity; 0.1 µM, together with: ATP at Km): 2%
CN1CCN(Cc2ccc(-c3ccc(CO[C@H]4CCC[C@@H]4NC(=O)c4cc(-c5cnn(C)c5)cnc4N)cc3)cc2)CC1 — inhibition (enzyme activity, inhibitor; 0.1 µM): 8%
Cc1cccc(O[C@H]2CCC[C@@H](C(C)CNCc3ccncc3)C2)c1 (relative stereo) — inhibition (enzyme activity, inhibitor; 10 µM): -3%
COc1ccc(O)cc1-c1c[nH]c2ncc(-c3cncc(C(=O)N(C)C)c3)cc12 — inhibition (binding, competition with immobilised ligand; 0.2 µM): 4.62%
O=c1c(-c2ccc(Cl)c(CN3CCOCC3)c2)coc2cc(O)ccc12 — remaining activity (enzyme activity, inhibitor; 1 µM): 92%
CNC(=O)C[C@H](Cc1ccc(C#N)cc1)NC(=O)c1cc(-c2ccc(CN[C@H](C)c3ccc(C)cc3)o2)ccc1Cl — activity vs control (enzyme activity, inhibitor; 1 µM): 114%
C=CC(=O)N1Cc2nc(-c3cc(-c4cc(Cl)cnc4Cl)c(F)cc3F)n(-c3ccncn3)c2C1 — inhibition (cell-free assay, inhibitor; 1 µM): 4.3%
COc1cc(Nc2nc(C)cc(-c3cnn4nc(OC)ccc34)n2)cc(C(F)(F)F)c1 — remaining activity (inhibitor; 1 µM; reference: control): 100%
C=CC(=O)Nc1cccc(-c2cnc3[nH]cc(C(=O)NC(C)(C)C)c3n2)c1 — inhibition (kinase activity; 0.1 µM): 7% and 3%
Cc1nc2c(F)cc(-c3nc(Nc4ccc(CNC(=O)CCCCCCC(=O)NO)cc4)ncc3F)cc2n1C(C)C — inhibition (enzyme activity, inhibitor; 1 µM): 87%
COCC12C(=O)NC3C4(C(OC)CC1O)C1CC5(O)C(OC)C(O)C(OC(C)=O)(C1C5OC(=O)c1ccccc1)C3(O)C(OC)C24 (stereo not drawn) — remaining activity (kinase activity, inhibitor, ProQinase kinase profiling; 25 µM; reference: control): 104%
